Measured values collected from several papers.
Protocols differ between the studies behind these lines. ± gives the spread as reported.
B1: UGT1A9 (Homo sapiens, UniProt O60656); chain GKLLVVPMDGSHWFTMRSVVEKLILRGHEVVVVMPEVSWQLGRSLNCTVKTYSTSYTLEDLDREFKAFAHAQWKAQVRSIYSLLMGSYNDIFDLFFSNCRSLFKDKKLVEYLKESSFDAVFLDPFDNCGLIVAKYFSLPSVVFARGILCHYLEEGAQCPAPLSYVPRILLGFSDAMTFKERVRNHIMHLEEHLLCHRFFKNALEIASEILQTPVTEYDLYSHTSIWLLRTDFVLDYPKPVMPNMIFIGGINCHQGKPLPMEFEAYINASGEHGIVVFSLGSMVSEIPEKKAMAIADALGKIPQTVLWRYTGTRPSNLANNTILVKWLPQNDLLGHPMTRAFITHAGSHGVYESICNGVPMVMMPLFGDQMDNAKRMETKGAGVTLNVLEMTSEDLENALKAVINDKSYKENIMRLSSLHKDRPVEPLDLAVFWVEFVMRHKGAPHLRPAAHDLTWYQYHSLDVIGFLLAVVLTVAFITFKCCAYGYRKCLGKKGRVKKAHKSKTH
UniProt P35222, sequence (whole entry, looked up): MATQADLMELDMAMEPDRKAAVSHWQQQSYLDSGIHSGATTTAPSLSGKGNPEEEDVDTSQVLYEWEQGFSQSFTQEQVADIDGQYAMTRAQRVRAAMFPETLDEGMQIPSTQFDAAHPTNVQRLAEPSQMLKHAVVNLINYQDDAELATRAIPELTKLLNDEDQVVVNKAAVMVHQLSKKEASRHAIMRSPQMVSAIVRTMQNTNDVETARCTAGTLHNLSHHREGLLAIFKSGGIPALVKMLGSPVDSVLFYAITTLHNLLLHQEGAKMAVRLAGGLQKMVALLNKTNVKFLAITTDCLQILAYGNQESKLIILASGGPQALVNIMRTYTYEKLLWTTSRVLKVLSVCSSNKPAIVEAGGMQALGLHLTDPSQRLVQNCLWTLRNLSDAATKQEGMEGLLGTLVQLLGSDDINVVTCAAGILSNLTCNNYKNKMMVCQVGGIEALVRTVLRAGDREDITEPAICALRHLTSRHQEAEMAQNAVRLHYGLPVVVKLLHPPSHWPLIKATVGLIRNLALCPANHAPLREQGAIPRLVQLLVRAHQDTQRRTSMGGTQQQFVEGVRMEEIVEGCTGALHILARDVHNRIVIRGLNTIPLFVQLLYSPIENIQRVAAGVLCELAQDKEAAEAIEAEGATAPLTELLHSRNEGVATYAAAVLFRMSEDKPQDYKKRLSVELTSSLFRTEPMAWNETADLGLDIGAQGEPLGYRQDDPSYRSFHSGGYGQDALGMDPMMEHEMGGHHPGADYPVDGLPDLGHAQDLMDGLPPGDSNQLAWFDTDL
UniProt F4JVI3, sequence (whole entry, looked up): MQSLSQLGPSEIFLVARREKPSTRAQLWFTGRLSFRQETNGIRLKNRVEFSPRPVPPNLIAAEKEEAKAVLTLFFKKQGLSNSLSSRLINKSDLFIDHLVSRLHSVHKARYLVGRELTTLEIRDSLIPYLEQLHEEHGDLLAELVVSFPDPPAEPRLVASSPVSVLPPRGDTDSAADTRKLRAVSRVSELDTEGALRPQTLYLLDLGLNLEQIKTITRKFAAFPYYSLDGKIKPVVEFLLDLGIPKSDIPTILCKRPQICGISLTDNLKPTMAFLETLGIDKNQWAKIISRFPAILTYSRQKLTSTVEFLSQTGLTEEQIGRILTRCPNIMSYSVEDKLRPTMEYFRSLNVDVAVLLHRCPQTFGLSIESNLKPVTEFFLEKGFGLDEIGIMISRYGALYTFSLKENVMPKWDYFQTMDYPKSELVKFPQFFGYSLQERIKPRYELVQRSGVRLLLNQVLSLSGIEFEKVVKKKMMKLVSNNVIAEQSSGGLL
UniProt Q9N4I4, sequence (whole entry, looked up): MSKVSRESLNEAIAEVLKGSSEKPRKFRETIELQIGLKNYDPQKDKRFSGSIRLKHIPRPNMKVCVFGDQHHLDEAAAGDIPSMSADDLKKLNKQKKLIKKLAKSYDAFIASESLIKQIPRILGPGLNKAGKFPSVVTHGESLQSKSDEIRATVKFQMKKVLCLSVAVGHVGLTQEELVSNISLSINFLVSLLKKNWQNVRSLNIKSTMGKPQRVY
UniProt P25799, sequence (whole entry, looked up): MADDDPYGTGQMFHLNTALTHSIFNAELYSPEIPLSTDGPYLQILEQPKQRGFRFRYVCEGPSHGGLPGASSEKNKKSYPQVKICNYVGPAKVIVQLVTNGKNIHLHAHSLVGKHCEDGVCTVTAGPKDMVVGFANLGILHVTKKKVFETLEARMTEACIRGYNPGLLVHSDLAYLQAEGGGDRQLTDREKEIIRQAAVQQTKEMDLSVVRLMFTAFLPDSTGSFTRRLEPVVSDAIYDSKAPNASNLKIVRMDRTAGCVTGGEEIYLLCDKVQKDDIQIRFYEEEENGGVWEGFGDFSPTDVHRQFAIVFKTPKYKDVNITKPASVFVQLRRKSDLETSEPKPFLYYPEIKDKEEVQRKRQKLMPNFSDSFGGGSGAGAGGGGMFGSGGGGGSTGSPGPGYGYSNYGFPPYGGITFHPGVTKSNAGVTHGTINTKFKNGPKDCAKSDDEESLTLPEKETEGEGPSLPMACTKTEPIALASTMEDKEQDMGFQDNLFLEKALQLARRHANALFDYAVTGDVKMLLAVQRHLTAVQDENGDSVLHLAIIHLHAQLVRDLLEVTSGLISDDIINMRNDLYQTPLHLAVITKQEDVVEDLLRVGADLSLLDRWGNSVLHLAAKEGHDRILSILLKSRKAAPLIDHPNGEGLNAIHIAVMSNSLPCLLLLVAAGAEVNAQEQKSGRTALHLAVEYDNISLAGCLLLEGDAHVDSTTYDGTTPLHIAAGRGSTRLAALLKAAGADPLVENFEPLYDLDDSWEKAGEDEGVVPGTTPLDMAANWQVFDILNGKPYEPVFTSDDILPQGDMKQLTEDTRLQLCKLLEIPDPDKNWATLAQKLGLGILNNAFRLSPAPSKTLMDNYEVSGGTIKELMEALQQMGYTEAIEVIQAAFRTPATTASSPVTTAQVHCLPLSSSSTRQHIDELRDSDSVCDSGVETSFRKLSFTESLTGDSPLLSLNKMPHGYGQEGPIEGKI

Substance	tested on	assay	test system	setting	how to read	quantity	result
CCTACTTAAGTAGGGAAGGTGCACAATGTACATCTTCTTTTAATTTCCCGGTATGAGATTTTATATTCACAGTATGAATATTTTATGTAATAAAATTCATGGTAATTATTATAACTAAAAGTTTCTTTAATAATAAAACGAATAACTTGCAGATTTGAAATGCAT (dsDNA (Escherichia coli); blunt)	leuO fragment (Escherichia coli)	DNase I footprinting	double-stranded DNA, one strand shown			binding	binds
GATCGATCGACACACACACACACACAGATCGATCGA (dsDNA; N6-methyl-dA at 12,14,16,18,20,22,24,26; blunt)	Pc fragment (Drosophila melanogaster)	pull-down	double-stranded DNA, one strand shown			binding	binds
GGTGCGCATAATGTATATTATGTTAAAT (dsDNA (Escherichia coli))	XerC/XerD (Escherichia coli)	EMSA	double-stranded DNA, one strand shown	cooperative		K1/2	< 1 nM
GGGAUGACCUCAUAAAAUACCUCUUCAAAAUGCUUAAAUUCAUUUCACACAUUAAUUUUAUCUCAGUCUUGAAGCCAAUUCAGUAGGUGCAUUGGAAUCAAGCCUGGCUACCUGCAUGCUGUUCCUUUUCUUUUCUUCUUUUAGCCAUUUUGCUAAGAGACUCUAGAUC (ssRNA)	CTNNB1 full length assumed (Homo sapiens, UniProt P35222)	EMSA				binding	no binding
GAGUUGAGUUGAGUUGAGUUGAGUUGAGUUGAGUUGAGUUGAGUUGAGUUGAGUU (ssRNA; single strand)	mtrB full length assumed T30E (Bacillus subtilis, UniProt P19466)	filter binding		added: L-tryptophan 1 mM		Kd	335 ± 5 nM
GATCCAGAGGGGACTTTCCGAGAG (dsDNA)	Nfkb1 1-431 (Mus musculus, UniProt P25799)	competition	double-stranded DNA, one strand shown, crude extract	not purified	reference: B2 oligo equal competitor, lower = stronger competition	relative binding	1 fold
CCAAGGCAGCAGTAGAAGCAAGACCATAAAGGCTATCCGGCGAACGAACAGGCGAAAATTGCGCACAATACCTCAATTTCGAAACGATAATTTTATTGTCATAACGCAACGATCGTCCAATGTCAATCCTGCTGCGACTGATCGCCGCGCATCCCGCCCTTTCTGGCGCGCCCCTTATTCACGGCTTTTTCTACCCATTGGGTAGCCTG (dsDNA)	fur full length assumed (Acidithiobacillus ferrooxidans, UniProt B7J425)	EMSA	double-stranded DNA, one strand shown	supershift, added: Mn2+ 0.1 mM		binding	binds
GGGAGAGAAGGACAAGCGUUUCAGCGGAUCCAUCAGGUAGCUACGACCUGUGAAAACAGGGAGUUGGGACUUUCAAAGCCUAAUUAUUGCCGCUUUGAAAUAAUGAUACGAGCUGGUAUAAUGUAACCAAUCGUGUCAUUUGGAUUUAUUUCUAUUGUUCUAUUUUCCAGACUGAAGCACAUUCCACGCCCAAACAUGAAGG (ssRNA)	rpl-10a 1-216 (Caenorhabditis elegans, UniProt Q9N4I4)	UV crosslinking				binding	binds weakly
B1 (UGT1A9)	COc1cc(/C=C/C(O)=C/C(=O)/C=C/c2ccc(O)cc2)ccc1O	steady-state kinetics		pH 7.4, 37 °C		Vmax/Km	14 µL/min/mg
GTAGACTCTAAAAATACCCTTGGTACTTTATTGACGATCTCACAAAGATGCAATCTCAGTGAATTTTAATTTACTTATTCATCTTTTACAGAATCGATT (dsDNA)	MTERF5 44-493 (Arabidopsis thaliana, UniProt F4JVI3)	DNase I footprinting	double-stranded DNA, one strand shown			binding	binds
DNA 1 GGACGGCATTGGATCGAGGTTGAGTTGGTTGGACGGCTGCGAGGA / DNA 2 TCCTCGCAGCCGTCCAACCAACTCA / DNA 3 CCTCGATCCAATGCCGTCC (dsDNA; 1-nt gap, three strands, blunt)	POLG/POLG2 26-1239; 26-485 (Homo sapiens)	SAXS	double-stranded DNA			binding	binds
GCGGACGGACAGAGAGUGCAACCUGCCGUGCCGC (ssRNA; 2'-F pyrimidines, 5' thiol-C6)	ITGA5/ITGB1 on cells (Homo sapiens)	flow cytometry	RT112	apparent, no added Mg2+/Ca2+, not purified		Kd	467 ± 94 nM
